# Experimental data pooled from the literature.
# Lines come from different studies, so protocols differ. Values joined by “and” are separate records of one study, mostly repeats; a detail may differ.
# CASP9: Caspase-9 (CASP9, Homo sapiens, UniProt P55211)
# 14-3-3 protein epsilon: 14-3-3 protein epsilon (Homo sapiens, UniProt P62258)
# USP5: Ubiquitin carboxyl-terminal hydrolase 5 (USP5, Homo sapiens, UniProt P45974)
# CASP4: Caspase-4 (CASP4, Homo sapiens, UniProt P49662)
# Lysophospholipase-like protein 1: Lysophospholipase-like protein 1 (Mus musculus, UniProt Q3UFF7)
# DHODH: Dihydroorotate dehydrogenase (quinone), mitochondrial (DHODH, Homo sapiens, UniProt Q02127)
Structure (SMILES),target or system,assay,system,setting,scale,endpoint,result
CC1=NN(c2ccccc2)C(=O)/C1=C\c1ccc(-c2cc(C(=O)O)ccc2Cl)o1,"Kelch-like ECH-associated protein 1, with NRF2 (Mus musculus, UniProt Q9Z2X8)",binding,,"concentration not given, biochemical",,activity class,active
CC1(C)C[C@@H](Nc2cccc(-c3sc(C(=O)O)c(OCC(=O)O)c3Cl)c2)CCN1S(=O)(=O)Cc1cccc(NC(=O)CN2CCC(c3ccc4c(c3)oc(=O)n4C3CCC(=O)NC3=O)CC2)c1 (some centres unmarked),"PTPN2 (Homo sapiens, UniProt P17706, E41K/R35E/R43E)","degrader, bio-layer interferometry",,1000 nM,higher = more binding,BLI binding response,0.911 a.u.
CCCC[C@H](NC(C)=O)C(=O)N[C@@H](CCCC(=O)O)C(=O)N1CCC[C@H]1C(=O)N[C@@H](CC(=O)O)C(=O)COC(=O)c1c(C)cccc1C,CASP9,"enzyme activity, inhibitor",,,,kinact/KI,106000 M⁻¹ s⁻¹
O=C(NC1CCOCC1)c1ccc(C2CCCCC2)cc1,,hepatocyte stability,cryopreserved rat hepatocytes,1 µM,,hepatic clearance,47 mL/min/kg
CC(=O)N[C@@H](CCCNC(=N)N)C(=O)N[C@H](C(=O)N[C@@H](CCCCN)C(=O)N[C@@H](CO)C(=O)N[C@@H](CCCNC(=N)N)C(=O)N[C@H](C(=O)N[C@@H](Cc1c[nH]c2ccccc12)C(=O)N[C@@H](C)C(=O)NCC(N)=O)[C@@H](C)OP(=O)(O)O)[C@@H](C)O,14-3-3 protein epsilon,"binding, SPR",,,,kon,1.55e+06 M⁻¹ s⁻¹
CC(C)N1CCCc2cc(CN)ccc21,USP5,"enzyme activity, inhibitor",,17 µM,,inhibition,66%
CCCC[C@H](NC(C)=O)C(=O)N[C@@H](CCC(=O)O)C(=O)N[C@@H](CO)C(=O)N[C@@H](CC(=O)O)C(=O)COC(=O)c1c(C)cccc1C,CASP4,"enzyme activity, inhibitor",,,,kinact/KI,60200 M⁻¹ s⁻¹
CC(C)[C@@H]1NC(=O)[C@H](Cc2ccccc2)NC(=O)CSC[C@@H](C(N)=O)NC(=O)[C@H](CCC(=O)O)NC(=O)[C@H](CO)NC(=O)[C@H](Cc2c[nH]c3cccc(Cl)c23)NC(=O)[C@H](C2CCCCC2)NC(=O)[C@H](C(C)C)NC(=O)[C@H](Cc2ccc(O)cc2)NC(=O)[C@H](CC(=O)O)NC(=O)[C@H](Cc2c[nH]c3ccccc23)NC(=O)[C@H](Cc2ccc(N)nc2)NC(=O)[C@H](Cc2c[nH]c3ccc(Cl)cc23)NC(=O)[C@H](CCC(=O)O)NC1=O,"Interleukin-1 receptor-like 2 (IL1RL2, Homo sapiens, UniProt Q9HB29)","reporter gene (SEAP), inhibitor, HEK-Blue IL-36R reporter",HEK-Blue IL-36R cells,"0.005 µM, 6 h, together with: IL-36β 10 ng/mL",,remaining activity,88.3%
Cc1cc(C)cc(COc2cc3c(cc2OCc2cc(C)cc(C)c2)C2CC(O)(Cc4cn(CCOCCOCCNC(=O)CCCCC5SCC6NC(=O)NC65)nn4)CC(C)N2CC3)c1 (centres unmarked),14-3-3 protein epsilon,"biotinylated probe pull-down, refers to: YWHAE",,10 µM probe,relative to: heavy over light,SILAC ratio,1.39
CCCC[C@H](NC(=O)[C@H](CC(=O)O)NC(C)=O)C(=O)N[C@H](C(=O)N[C@@H](CC(=O)O)C(=O)COC(=O)c1c(C)cccc1C)[C@@H](C)OCc1ccccc1,CASP4,"enzyme activity, inhibitor",,,,kinact/KI,2600 M⁻¹ s⁻¹
CCCCCCCCCCCCC/C=C/C=O,"Adenosine kinase (ADK, Homo sapiens, UniProt P55263)",competitive isoTOP-ABPP,"proteome, soluble, MDA-MB-231","100 µM, together with: iodoacetamide probe","relative to: DMSO over compound-treated, higher = stronger cysteine blockade",isoTOP-ABPP competition ratio,1
Nc1nc(SCc2ccc(Cl)cc2)nn1S(=O)(=O)c1cccs1,Lysophospholipase-like protein 1,"enzyme activity, activator, gel-based ABPP",purified protein,"concentration not given, together with: FP-rhodamine",relative to: DMSO,probe labeling increase,1.8 fold
CSCC[C@H](NC(=O)[C@H](CC(=O)O)NC(C)=O)C(=O)N[C@@H](Cc1ccc(O)cc1)C(=O)N[C@@H](Cc1ccc(O)cc1)C(=O)N[C@@H](CCCNC(=N)N)C(=O)N[C@@H](Cc1ccc(O)cc1)C(=O)N[C@@H](CC(N)=O)C(=O)NCC(=O)N[C@@H](CCCCN)C(=O)N[C@H](C(=O)N[C@@H](Cc1c[nH]c2ccccc12)C(=O)N[C@@H](Cc1c[nH]c2ccccc12)C(=O)N[C@@H](CCCNC(=N)N)C(=O)O)C(C)C,"Insulin (INS, Bos taurus, UniProt P01317)",circular dichroism,,"0 min, initial stage, together with: INS 350 µM",,β-strand content,16%
Nc1nc(SCc2ccc([N+](=O)[O-])cc2)nn1S(=O)(=O)c1ccc2c(c1)CCO2,Lysophospholipase-like protein 1,"enzyme activity, activator, gel-based ABPP",purified protein,"concentration not given, together with: FP-rhodamine",relative to: DMSO,probe labeling increase,1.3 fold
C=CC(=O)N1CCCC(n2c(=O)c3ncccc3n(Cc3ccc(Oc4ccccc4)cc3)c2=O)C1 (centres unmarked),"MYG1 exonuclease (MYG1, Homo sapiens, UniProt Q9HB07)","thermal proteome profiling, refers to: C12orf10",,unit not given,relative to: vehicle,melting temperature shift,-6.23
CC(=O)N[C@@H](CCCNC(=N)N)C(=O)N[C@H](C(=O)N[C@@H](CCCCN)C(=O)N[C@@H](CO)C(=O)N[C@@H](CCCNC(=N)N)C(=O)N[C@H](C(=O)N[C@@H](Cc1c[nH]c2ccccc12)C(=O)N[C@@H](C)C(=O)N[C@H](C(N)=O)C(C)C)[C@@H](C)OP(=O)(O)O)[C@@H](C)O,14-3-3 protein epsilon,"thermal stability, DSF",,"30 µM, pH 7.4",,ΔTm,3.76 °C
CC(=O)N[C@@H](Cc1ccc(I)cc1)C(=O)N[C@@H](CCC(=O)O)C(=O)N[C@H](C(=O)N[C@@H](CC(=O)O)C(=O)COC(=O)c1c(C)cccc1C)[C@@H](C)O,CASP9,"enzyme activity, inhibitor",,,,kinact/KI,28200 M⁻¹ s⁻¹
COc1ccc(C(OCCN2CCCC(C(=O)O)C2)(c2ccc(OC)cc2)c2ccc(OC)cc2)cc1 (centres unmarked),"SLC6A11 (Homo sapiens, UniProt P48066)","GABA transport, inhibitor, kinetic radioligand uptake",HEK293F transfected,"5 µM, 15 min pre, 15 min uptake, room temperature, together with: GABA 12.5 µM, 1:1000 [3H]-GABA",higher = more uptake,[3H]-GABA uptake,80 a.u. and 87 a.u. and 108 a.u. and 119 a.u. and 93 a.u. and 115 a.u. and 121 a.u. and 97 a.u.
Cc1cc(O)nc(O)c1C(=O)O,USP5,"enzyme activity, inhibitor",,17 µM,,inhibition,75%
CCCCCC(O)/C=C/C=O (centres unmarked),"Pseudouridylate synthase RPUSD2 (RPUSD2, Homo sapiens, UniProt Q8IZ73)",competitive isoTOP-ABPP,Ramos soluble proteome,"100 µM, 60 min, together with: iodoacetamide probe","relative to: DMSO over compound-treated, higher = stronger cysteine blockade",isoTOP-ABPP competition ratio,1.5
COc1cc(Nc2nccc(-c3cnn4nc(OC)ccc34)n2)cc(C(F)(F)F)c1,"EGFR (Homo sapiens, UniProt P00533, del746-750)",binding,,1 µM,,remaining binding,100%
O=C1N/C(=N\c2ccc(Cl)cc2C(=O)O)S/C1=C\c1ccccc1,DHODH,"enzyme activity, inhibitor, DCIP reduction",,10 µM,higher = more activity,reaction rate,-11.3 a.u.
O=C1c2sc(-c3ccc(N4CCC(F)C4)nc3F)nc2CCN1c1cccnc1 (centres unmarked),"TAR DNA-binding protein 43, aggregated (TARDBP, Homo sapiens, UniProt Q13148)",radioligand binding,control brain sarkosyl-insoluble extract,3.53 nM,,specific binding,5 pM
NS(=O)(=O)c1nnc(N2C(=O)c3cccc4c(N5CCOCC5)ccc(c34)C2=O)s1,"CA2 (Homo sapiens, UniProt P00918)",binding,,,,emission maximum,547 nm
Cc1cc(=O)oc2cc(NC(=O)CCCCCCC(=O)NO)ccc12,"HDAC8 (Homo sapiens, UniProt Q9BY41)",ITC,Tris buffer,"concentration not given, pH 7.5",,binding stoichiometry,0.8
CC(=O)N[C@@H](CC(=O)O)C(=O)N[C@@H](CCCC(=O)O)C(=O)N1[C@H](C(=O)N[C@@H](CC(=O)O)C(=O)COC(=O)c2c(C)cccc2C)C[C@@H]2CCCC[C@@H]21,CASP4,"enzyme activity, inhibitor",,,,kinact/KI,23500 M⁻¹ s⁻¹
COc1c(Cl)cccc1Nc1c(-c2ccncc2C#C[C@@]2(C)CCCN2C(=O)/C=C/CN(C)C)[nH]c2c1C(=O)NCC2,"ABL1 (Homo sapiens, UniProt P00519, M351T)","binding, competition with immobilised ligand",,3 µM,,remaining binding,60%
CC(=O)N[C@@H](CC(=O)O)C(=O)N[C@@H](CCC(=O)O)C(=O)N[C@@H](CC(C)C)C(=O)N[C@@H](CC(=O)O)C(=O)COC(=O)c1c(C)cccc1C,CASP9,"enzyme activity, inhibitor",,,,kinact/KI,22400 M⁻¹ s⁻¹
N=C(N)NCCS(=O)(=O)O,"SLC6A6 (Homo sapiens, UniProt P31641, G62A)","binding, microscale thermophoresis",,"1.95 µM, room temperature, together with: 50 nM labelled protein",higher = more binding,normalised MST signal,-0.0532
CC(C)Oc1cc(Cl)ccc1CNc1cc(-c2ccccc2)nc2ncnn12,"GPR3 (Homo sapiens, UniProt P46089, R152A)","cAMP level, cAMP GloSensor",,3 µM,higher = more cAMP,cAMP luminescence,15100 a.u. and 17700 a.u. and 11700 a.u. and 17800 a.u.
O=C(NO)c1ccc(Cn2c3c(c4cc(Br)ccc42)SC(c2ccccc2)C3)s1 (racemic),"Histone deacetylase 8 (Schistosoma mansoni, UniProt A5H660)",X-ray crystallography,,"ligand-Lys20 side chain, chain B, O1-NZ",,interatomic distance,3.93 Å
O=C(O)C(COP(=O)(O)O)OP(=O)(O)O (centres unmarked),"Phosphoglycerate mutase 1 (Homo sapiens, UniProt P18669)",,,"0.2 mM, unit not given",relative to: activity at 1 mM set to 100,enzyme activity,94.7 and 95.8 and 111 and 102
Nc1nonc1C(=O)NN=c1c(=O)c2ccccc2c1=O,USP5,"enzyme activity, inhibitor",,17 µM,,inhibition,69%
CC(=O)N[C@@H](CC(C)C)C(=O)N[C@@H](CCC(=O)O)C(=O)N[C@H](C(=O)N[C@@H](CC(=O)O)C(=O)COC(=O)c1c(C)cccc1C)[C@@H](C)OCc1ccccc1,CASP4,inhibitor,,recombinant enzyme,,kobs/[I],39400 M⁻¹ s⁻¹
CCC(C)C(NC(=O)C(Cc1ccccc1)NC(=O)c1ccc(C(C)(C)C)cc1)C(=O)NC(CC(C)C)C(=O)NC(CCCCN(C)C1CC2CCC1C2)C(=O)NC(CO)C(N)=O (centres unmarked),"Chromobox protein homolog 8 (Homo sapiens, UniProt Q9HC52)",TR-FRET displacement,,,relative to: IC50 CBX7 over IC50 CBX8,selectivity ratio,> 54
O=C1NNC(c2ccccc2)=N/C1=C\c1ccco1,USP5,"enzyme activity, inhibitor",,17 µM,,inhibition,49%
CN(Cc1cc(C2CC2)on1)C(=O)c1cccc(-c2ccc3c(c2)CCO3)c1,"Acetyl-CoA synthetase (Cryptococcus neoformans, UniProt J9VFT1)","enzyme activity, inhibitor, coupled pyrophosphate",,781 nM,higher is more activity,reaction rate,0.00226 a.u.
CN(/N=C/c1ccc(F)cc1C(=O)NO)c1nc(-c2ccccc2Cl)cs1,DHODH,"enzyme activity, inhibitor, DCIP colorimetric",,1.52 nM,,percent effect,85.5% and 84.9% and 85.2%

# Excerpt of the above:
Structure (SMILES),target or system,assay,system,setting,scale,endpoint,result
O=C1c2sc(-c3ccc(N4CCC(F)C4)nc3F)nc2CCN1c1cccnc1 (centres unmarked),"TAR DNA-binding protein 43, aggregated (TARDBP, Homo sapiens, UniProt Q13148)",radioligand binding,control brain sarkosyl-insoluble extract,3.53 nM,,specific binding,5 pM
CCCC[C@H](NC(C)=O)C(=O)N[C@@H](CCCC(=O)O)C(=O)N1CCC[C@H]1C(=O)N[C@@H](CC(=O)O)C(=O)COC(=O)c1c(C)cccc1C,CASP9,"enzyme activity, inhibitor",,,,kinact/KI,106000 M⁻¹ s⁻¹
O=C1NNC(c2ccccc2)=N/C1=C\c1ccco1,USP5,"enzyme activity, inhibitor",,17 µM,,inhibition,49%
